Measurements of several laboratories.
Lines come from different studies, so protocols differ. ± gives the spread as reported.
PSMB7 in 20S proteasome: Proteasome subunit beta type-7, in 20S proteasome (PSMB7, Homo sapiens, UniProt Q99436)
UniProt Q99436, sequence (whole entry, looked up): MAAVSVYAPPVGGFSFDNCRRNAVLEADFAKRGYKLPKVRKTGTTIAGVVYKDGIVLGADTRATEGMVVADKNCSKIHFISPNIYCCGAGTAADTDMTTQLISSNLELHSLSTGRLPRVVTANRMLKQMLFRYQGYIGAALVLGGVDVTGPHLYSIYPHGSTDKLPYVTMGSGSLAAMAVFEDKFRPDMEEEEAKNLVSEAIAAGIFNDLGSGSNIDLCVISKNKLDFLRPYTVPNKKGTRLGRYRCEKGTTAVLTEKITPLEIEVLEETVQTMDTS
SEC14: SEC14 (Saccharomyces cerevisiae, UniProt P24280)
UniProt P24280, sequence (whole entry, looked up): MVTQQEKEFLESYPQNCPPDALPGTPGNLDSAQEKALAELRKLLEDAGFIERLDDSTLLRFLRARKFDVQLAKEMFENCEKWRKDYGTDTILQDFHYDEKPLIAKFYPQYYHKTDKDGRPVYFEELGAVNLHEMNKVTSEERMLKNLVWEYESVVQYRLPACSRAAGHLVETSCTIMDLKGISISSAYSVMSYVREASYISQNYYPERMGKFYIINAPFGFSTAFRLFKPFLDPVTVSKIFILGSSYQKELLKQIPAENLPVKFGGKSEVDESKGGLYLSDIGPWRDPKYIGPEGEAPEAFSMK
UniProt P60477, sequence (whole entry, looked up): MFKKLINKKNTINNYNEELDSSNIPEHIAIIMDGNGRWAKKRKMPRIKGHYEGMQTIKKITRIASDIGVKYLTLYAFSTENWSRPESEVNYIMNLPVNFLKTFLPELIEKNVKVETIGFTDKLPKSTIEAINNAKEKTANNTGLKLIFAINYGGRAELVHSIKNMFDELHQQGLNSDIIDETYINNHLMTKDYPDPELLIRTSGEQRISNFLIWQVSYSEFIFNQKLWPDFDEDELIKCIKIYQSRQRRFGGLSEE
UniProt P30969, sequence (whole entry, looked up): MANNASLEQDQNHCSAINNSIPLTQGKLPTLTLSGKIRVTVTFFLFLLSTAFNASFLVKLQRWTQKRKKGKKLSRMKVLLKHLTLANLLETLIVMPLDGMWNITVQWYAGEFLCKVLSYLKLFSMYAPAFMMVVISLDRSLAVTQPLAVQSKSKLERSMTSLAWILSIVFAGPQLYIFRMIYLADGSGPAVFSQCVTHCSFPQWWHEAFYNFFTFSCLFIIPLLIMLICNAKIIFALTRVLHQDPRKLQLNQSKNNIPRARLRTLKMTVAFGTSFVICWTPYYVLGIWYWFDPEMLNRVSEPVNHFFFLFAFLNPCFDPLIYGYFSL
UniProt P68400, sequence (whole entry, looked up): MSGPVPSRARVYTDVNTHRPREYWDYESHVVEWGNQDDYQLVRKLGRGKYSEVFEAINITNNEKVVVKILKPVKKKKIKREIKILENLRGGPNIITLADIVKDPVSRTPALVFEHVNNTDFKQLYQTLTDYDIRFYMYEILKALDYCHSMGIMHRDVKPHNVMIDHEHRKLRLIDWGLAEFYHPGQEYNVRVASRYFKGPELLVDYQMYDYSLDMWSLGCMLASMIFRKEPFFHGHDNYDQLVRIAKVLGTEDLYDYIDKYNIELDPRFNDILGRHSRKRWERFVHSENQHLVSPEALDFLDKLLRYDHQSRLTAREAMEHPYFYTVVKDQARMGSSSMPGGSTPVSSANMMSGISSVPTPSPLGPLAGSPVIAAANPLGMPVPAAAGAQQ
UniProt P39476, sequence (whole entry, looked up): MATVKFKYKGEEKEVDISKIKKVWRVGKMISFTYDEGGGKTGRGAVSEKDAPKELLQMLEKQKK
UniProt P07947, sequence (whole entry, looked up): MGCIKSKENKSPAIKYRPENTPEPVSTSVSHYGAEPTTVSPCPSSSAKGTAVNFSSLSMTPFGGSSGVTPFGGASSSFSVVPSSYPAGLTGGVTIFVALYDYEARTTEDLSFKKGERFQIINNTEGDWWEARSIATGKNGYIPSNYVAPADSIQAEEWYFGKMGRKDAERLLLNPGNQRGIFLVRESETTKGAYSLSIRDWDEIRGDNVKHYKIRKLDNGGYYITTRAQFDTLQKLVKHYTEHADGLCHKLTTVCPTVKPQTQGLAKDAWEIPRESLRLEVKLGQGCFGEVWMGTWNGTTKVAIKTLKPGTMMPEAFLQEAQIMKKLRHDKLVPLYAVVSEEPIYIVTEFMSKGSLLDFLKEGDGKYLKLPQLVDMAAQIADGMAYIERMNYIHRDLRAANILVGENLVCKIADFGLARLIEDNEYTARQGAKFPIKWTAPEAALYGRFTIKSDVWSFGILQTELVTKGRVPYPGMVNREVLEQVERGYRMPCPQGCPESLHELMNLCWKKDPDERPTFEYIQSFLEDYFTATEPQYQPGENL
UniProt O60674, sequence (whole entry, looked up): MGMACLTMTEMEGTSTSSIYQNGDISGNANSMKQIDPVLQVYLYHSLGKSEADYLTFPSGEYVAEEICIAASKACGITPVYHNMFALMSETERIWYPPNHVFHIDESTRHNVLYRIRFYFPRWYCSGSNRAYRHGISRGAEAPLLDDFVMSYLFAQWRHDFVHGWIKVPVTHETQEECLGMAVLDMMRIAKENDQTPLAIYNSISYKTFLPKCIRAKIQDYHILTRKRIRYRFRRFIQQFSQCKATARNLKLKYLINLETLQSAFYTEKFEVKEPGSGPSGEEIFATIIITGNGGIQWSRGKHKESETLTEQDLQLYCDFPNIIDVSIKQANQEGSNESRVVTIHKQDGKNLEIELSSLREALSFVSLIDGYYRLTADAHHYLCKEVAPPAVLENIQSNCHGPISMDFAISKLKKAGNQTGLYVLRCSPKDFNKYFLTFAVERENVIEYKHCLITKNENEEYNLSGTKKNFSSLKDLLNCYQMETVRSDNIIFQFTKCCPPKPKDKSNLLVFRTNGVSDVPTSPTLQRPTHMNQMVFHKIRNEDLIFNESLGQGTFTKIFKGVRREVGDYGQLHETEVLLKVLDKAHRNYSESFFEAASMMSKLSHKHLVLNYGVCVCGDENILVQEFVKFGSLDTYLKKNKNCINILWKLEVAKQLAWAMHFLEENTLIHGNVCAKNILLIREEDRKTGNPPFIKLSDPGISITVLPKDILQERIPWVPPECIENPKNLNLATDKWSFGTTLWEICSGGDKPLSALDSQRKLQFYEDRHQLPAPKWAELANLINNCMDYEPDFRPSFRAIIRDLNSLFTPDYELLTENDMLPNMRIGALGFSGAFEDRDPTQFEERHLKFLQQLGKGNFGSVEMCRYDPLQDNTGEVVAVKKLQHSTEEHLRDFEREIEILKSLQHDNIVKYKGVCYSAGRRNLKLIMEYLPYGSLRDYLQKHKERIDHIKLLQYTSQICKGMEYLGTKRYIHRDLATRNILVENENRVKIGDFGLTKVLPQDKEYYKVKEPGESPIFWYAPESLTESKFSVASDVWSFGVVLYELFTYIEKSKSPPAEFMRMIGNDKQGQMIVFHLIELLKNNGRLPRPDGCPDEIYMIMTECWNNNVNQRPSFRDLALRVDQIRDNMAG
UniProt P11309, sequence (whole entry, looked up): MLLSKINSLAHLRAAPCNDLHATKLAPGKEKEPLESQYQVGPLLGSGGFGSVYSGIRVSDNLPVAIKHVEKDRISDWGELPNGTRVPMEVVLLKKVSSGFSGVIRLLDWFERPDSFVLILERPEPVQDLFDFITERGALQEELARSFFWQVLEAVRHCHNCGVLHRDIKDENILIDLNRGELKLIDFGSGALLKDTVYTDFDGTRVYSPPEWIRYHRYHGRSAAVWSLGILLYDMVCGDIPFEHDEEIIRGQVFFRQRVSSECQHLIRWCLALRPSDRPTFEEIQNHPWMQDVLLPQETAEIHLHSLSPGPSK
UniProt Q03145, sequence (whole entry, looked up): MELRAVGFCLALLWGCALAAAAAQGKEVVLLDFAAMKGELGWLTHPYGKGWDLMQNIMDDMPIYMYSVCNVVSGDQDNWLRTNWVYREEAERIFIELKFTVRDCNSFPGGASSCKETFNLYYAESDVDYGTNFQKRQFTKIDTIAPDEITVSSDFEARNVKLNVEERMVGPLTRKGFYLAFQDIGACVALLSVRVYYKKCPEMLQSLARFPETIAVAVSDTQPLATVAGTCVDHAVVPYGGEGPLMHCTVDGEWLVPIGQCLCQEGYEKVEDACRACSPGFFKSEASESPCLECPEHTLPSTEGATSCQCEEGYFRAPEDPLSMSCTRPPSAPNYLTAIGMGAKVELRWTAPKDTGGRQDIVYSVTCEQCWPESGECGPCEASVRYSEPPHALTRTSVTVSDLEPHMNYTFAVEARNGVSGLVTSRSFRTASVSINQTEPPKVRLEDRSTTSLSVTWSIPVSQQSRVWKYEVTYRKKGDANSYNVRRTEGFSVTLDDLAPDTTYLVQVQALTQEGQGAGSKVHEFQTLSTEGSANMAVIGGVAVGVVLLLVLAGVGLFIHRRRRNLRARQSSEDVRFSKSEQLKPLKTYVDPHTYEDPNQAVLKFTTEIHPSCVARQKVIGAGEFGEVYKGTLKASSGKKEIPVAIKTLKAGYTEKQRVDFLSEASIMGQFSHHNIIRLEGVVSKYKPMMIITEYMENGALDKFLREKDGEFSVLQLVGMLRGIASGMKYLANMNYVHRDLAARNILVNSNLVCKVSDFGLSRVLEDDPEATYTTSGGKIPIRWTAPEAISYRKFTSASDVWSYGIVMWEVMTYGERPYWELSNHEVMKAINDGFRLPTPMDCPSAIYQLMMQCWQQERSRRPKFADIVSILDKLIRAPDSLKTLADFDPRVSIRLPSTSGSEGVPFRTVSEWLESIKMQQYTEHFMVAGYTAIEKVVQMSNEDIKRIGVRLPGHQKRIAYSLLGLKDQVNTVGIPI
UniProt Q9QXD6, sequence (whole entry, looked up): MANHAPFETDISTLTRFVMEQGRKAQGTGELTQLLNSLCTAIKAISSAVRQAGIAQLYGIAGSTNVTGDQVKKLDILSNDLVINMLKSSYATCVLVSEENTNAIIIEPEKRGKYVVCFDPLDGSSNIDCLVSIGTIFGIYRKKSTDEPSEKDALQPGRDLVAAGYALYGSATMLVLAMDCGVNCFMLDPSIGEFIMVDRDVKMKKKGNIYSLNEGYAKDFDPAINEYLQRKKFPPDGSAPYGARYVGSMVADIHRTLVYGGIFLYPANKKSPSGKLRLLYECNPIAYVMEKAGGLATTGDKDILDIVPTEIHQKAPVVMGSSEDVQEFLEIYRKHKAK

C=C(NC(=O)C(=C)NC(=O)c1csc(C2=NC3c4csc(n4)C4NC(=O)c5csc(n5)C(C(C)(O)C(C)O)NC(=O)C5CSC(=N5)C(=CC)NC(=O)C(C(C)O)NC(=O)c5csc(n5)C3(CC2)NC(=O)C(CCC(N)=O)NC(=O)C(=C)NC(=O)C(C)NC(=O)C(C(C)CC)NC2C=Cc3c(C(C)O)cc(nc3C2O)C(=O)OC4C)n1)C(N)=O (stereo not drawn) — IC50 (PSMB7 in 20S proteasome; trypsin-like activity, inhibitor; purified 20S proteasome; 15 min preincubation, 37 °C, together with: Boc-Leu-Arg-Arg-AMC substrate): > 10.7 µM
Cc1nccn1-c1c[nH]n(-c2ccccn2)c1=O — IC50 (EGLN2 (Homo sapiens, UniProt Q96KS0); enzyme activity, inhibitor, europium VBC binding; 10 µM FeSO4, 2 mM ascorbate, together with: 20 µM 2-oxoglutarate): 15 µM
CC(C)C[C@H](NC(=O)[C@@H]1CCC(=O)N1)C(=O)N[C@@H](Cc1ccc(O)cc1)C(=O)N[C@@H](CCC(=O)O)C(=O)N[C@@H](CC(N)=O)C(=O)N[C@@H](CCCCN)C(=O)N1CCC[C@H]1C(=O)N[C@@H](CCCNC(=N)N)C(=O)O — IC50 (NTSR1 (Homo sapiens, UniProt P30989); ligand displacement in cells, radioligand): > 2 µM
CSc1ncc(-c2cc(-c3ccc4c(c3)OCO4)[nH]c(=N)c2C#N)n1Cc1ccccc1 — IC50 (PIM1 (Homo sapiens, UniProt P11309); enzyme activity, inhibitor): < 0.15 µM
CCCCCCOc1cccc(C(=O)Nc2ccc(F)cc2C(=O)O)c1 — IC50 (Isoprenyl transferase (uppS, Staphylococcus aureus, UniProt P60477); enzyme activity, inhibitor; pH 7.5, together with: FPP 5 µM, IPP 50 µM): 4.9 µM
CC(C)C[C@H](NC(=O)[C@H](Cc1c[nH]c2ccccc12)NC(=O)[C@H](C)NC(=O)CNC(=O)[C@@H](N)CSSC[C@H](N)C(=O)NCC(=O)N[C@@H](C)C(=O)N[C@@H](Cc1c[nH]c2ccccc12)C(=O)N[C@@H](CC(C)C)C(=O)N[C@@H](C)C(=O)N[C@@H](Cc1ccc(O)cc1)C(=O)N1CCC[C@H]1C(=O)N[C@@H](CC(=O)O)C(=O)N[C@@H](CO)C(=O)N[C@H](C(=O)N1CCC[C@H]1C(=O)N[C@@H](Cc1ccc(O)cc1)C(=O)N[C@@H](CCCNC(=N)N)C(=O)N1CCC[C@H]1C(=O)N[C@@H](CCCCN)C(N)=O)C(C)C)C(=O)N[C@@H](C)C(=O)N[C@@H](Cc1ccc(O)cc1)C(=O)N1CCC[C@H]1C(=O)N[C@@H](CC(=O)O)C(=O)N[C@@H](CO)C(=O)N[C@H](C(=O)N1CCC[C@H]1C(=O)N[C@@H](Cc1ccc(O)cc1)C(=O)N[C@@H](CCCNC(=N)N)C(=O)N1CCC[C@H]1C(=O)N[C@@H](CCCCN)C(N)=O)C(C)C — IC50 (Ephrin type-A receptor 2, ectodomain with ephrin-A5 (Mus musculus, UniProt Q03145); ephrin-A5 binding, inhibitor, ELISA; together with: ephrin-A5-AP 0.05 nM): 0.0004 µM
CNC(=O)C1CCN(c2cc(C)c(F)cc2NC(=O)c2ccc(-c3cc(O)ccc3C)c(C)c2)CC1 — IC50 (YES1 (Homo sapiens, UniProt P07947); target engagement in cells, BRET): 8.66 µM
Nc1nc2ccc(Oc3ccc4nc(N)sc4c3)cc2s1 — IC50 (Sensor histidine protein kinase/phosphatase WalK (walK, Streptococcus pneumoniae, UniProt Q8DPL8); enzyme activity, ATP-competitive inhibitor): 75 µM
C=C(NC(=O)C(=C)NC(=O)c1csc(C2=NC3c4csc(n4)C4NC(=O)c5csc(n5)C(C(C)(O)C(C)O)NC(=O)C5CSC(=N5)C(=CC)NC(=O)C(C(C)O)NC(=O)c5csc(n5)C3(CC2)NC(=O)C(=CC)NC(=O)C(=C)NC(=O)C(C)NC(=O)C(C(C)CC)NC2C=Cc3c(C(C)O)cc(nc3C2O)C(=O)OC4C)n1)C(N)=O (stereo not drawn) — IC50 (PSMB7 in 20S proteasome; trypsin-like activity, inhibitor; purified 20S proteasome; 15 min preincubation, 37 °C, together with: Boc-Leu-Arg-Arg-AMC substrate): 0.29 ± 0.03 µM
COc1cc(OC)c2c(c1)C(=O)c1cc3oc(=O)cc(-c4ccccc4)c3c(O)c1C2=O — IC50 (mushroom tyrosinase; enzyme activity; together with: L-DOPA): 78.02 ± 0.49 µg/mL
O=C(c1ccc(Cl)c([N+](=O)[O-])c1)N1CCN(c2ccc(F)cc2)CC1 — IC50 (SEC14; enzyme activity, inhibitor, radiometric): 0.283 µM
CC(=O)NCCN(CCC(=O)NCCN(CCC(=O)NCCN(CCC(=O)NCCC(N)=O)C(=O)[C@@H](N)Cc1ccccc1)C(=O)[C@@H](N)Cc1ccccc1)C(=O)[C@@H](N)CCCNC(=N)N — IC50 (HIV-1 TAR RNA; Tat/TAR complex displacement, FRET; room temperature, together with: 10 nM Tat/TAR complex): 66.6 ± 0.7 µM
O=C(c1ccc(Cl)cc1)N1CCN(c2ccc(F)cc2)CC1 — IC50 (SEC14; enzyme activity, inhibitor, radiometric): 2.55 µM
Nc1ncc(-c2cnn(C3CCNCC3)c2)cc1-c1nc2ccc(Oc3ccccn3)cc2o1 — IC50 (JAK2 (Homo sapiens, UniProt O60674); enzyme activity, inhibitor, TR-FRET): 0.31 µM
CCn1c(-c2cc(NC(=O)c3cnccn3)n[nH]2)cc2ccc(OC)cc21 — IC50 (CSNK2A1 (Homo sapiens, UniProt P68400); enzyme activity, inhibitor, ADP detection): 15 µM
CC(C)N1CCn2cc(C(=O)NCc3ccc(F)cc3F)c(=O)c(O)c2C1=O — IC50 (gag-pol/sso7d, integrase (Human immunodeficiency virus type 1 group M subtype B, UniProt P12497+P39476); integrase strand transfer, inhibitor, concerted integration; HIV-1): 0.106 µM
CC(C)C[C@H](NC(=O)[C@@H](Cc1c[nH]c2ccccc12)NC(=O)[C@H](Cc1c[nH]cn1)NC(=O)[C@H](CO)NC(=O)[C@H](Cc1c[nH]c2ccccc12)NC(=O)[C@H](Cc1c[nH]cn1)NC(=O)[C@@H]1CCC(=O)N1)C(=O)N[C@@H](CCCNC(=N)N)C(=O)N1CCC[C@H]1C(=O)NCC(N)=O — IC50 (Gonadotropin-releasing hormone receptor (Rattus norvegicus, UniProt P30969); binding, radioligand displacement; WPE-1-NB26-3 expressing Gonadotropin-releasing hormone receptor, whole cells; together with: radioiodinated GnRH analogue): 0.0003 ± 0.0001 µM
Nc1ncnc2c1ncn2C1OC(COP(=O)(O)O)C(O)C1O (stereo not drawn) — IC50 (Fructose-1,6-bisphosphatase 1 (Mus musculus, UniProt Q9QXD6); enzyme activity, inhibitor; His-tagged mouse wild type, together with: fructose-1,6-bisphosphate 35 µM): ~14 µM
CC[C@@H](O)/C=C/C=C\C[C@@H](O)/C=C/C=C/C=C\[C@@H](O)CCCC(=O)O — IC50 (LTB4R (Homo sapiens, UniProt Q15722); ligand displacement in cells, radioligand): ~0.5 µM
CNC(=O)C1CCN(c2ccccc2NC(=O)c2ccc(-c3cccc(O)c3)c(C)c2)CC1 — IC50 (EPHA4 (Homo sapiens, UniProt P54764); target engagement in cells, BRET): 11.9 µM
N#C/C(=C\c1ccc2ccncc2c1)C(N)=O — IC50 (Ribosomal protein S6 kinase alpha-3, C-terminal kinase domain (RPS6KA3, Homo sapiens, UniProt P51812, T493M); kinase activity, inhibitor; together with: 0.1 mM ATP): 6.4 µM

For quick reference, copied from above:
Nc1nc2ccc(Oc3ccc4nc(N)sc4c3)cc2s1 — IC50 (Sensor histidine protein kinase/phosphatase WalK (walK, Streptococcus pneumoniae, UniProt Q8DPL8); enzyme activity, ATP-competitive inhibitor): 75 µM
C=C(NC(=O)C(=C)NC(=O)c1csc(C2=NC3c4csc(n4)C4NC(=O)c5csc(n5)C(C(C)(O)C(C)O)NC(=O)C5CSC(=N5)C(=CC)NC(=O)C(C(C)O)NC(=O)c5csc(n5)C3(CC2)NC(=O)C(CCC(N)=O)NC(=O)C(=C)NC(=O)C(C)NC(=O)C(C(C)CC)NC2C=Cc3c(C(C)O)cc(nc3C2O)C(=O)OC4C)n1)C(N)=O (stereo not drawn) — IC50 (PSMB7 in 20S proteasome; trypsin-like activity, inhibitor; purified 20S proteasome; 15 min preincubation, 37 °C, together with: Boc-Leu-Arg-Arg-AMC substrate): > 10.7 µM
CC[C@@H](O)/C=C/C=C\C[C@@H](O)/C=C/C=C/C=C\[C@@H](O)CCCC(=O)O — IC50 (LTB4R (Homo sapiens, UniProt Q15722); ligand displacement in cells, radioligand): ~0.5 µM
CC(C)C[C@H](NC(=O)[C@@H](Cc1c[nH]c2ccccc12)NC(=O)[C@H](Cc1c[nH]cn1)NC(=O)[C@H](CO)NC(=O)[C@H](Cc1c[nH]c2ccccc12)NC(=O)[C@H](Cc1c[nH]cn1)NC(=O)[C@@H]1CCC(=O)N1)C(=O)N[C@@H](CCCNC(=N)N)C(=O)N1CCC[C@H]1C(=O)NCC(N)=O — IC50 (Gonadotropin-releasing hormone receptor (Rattus norvegicus, UniProt P30969); binding, radioligand displacement; WPE-1-NB26-3 expressing Gonadotropin-releasing hormone receptor, whole cells; together with: radioiodinated GnRH analogue): 0.0003 ± 0.0001 µM
